Measured values gathered from unrelated publications.
Parts stem from different laboratories: compare values within a part only. Several values in a cell are separate wells, animals, samples, runs or records.
Sequence of UniProt Q9NYY3 (whole entry, looked up): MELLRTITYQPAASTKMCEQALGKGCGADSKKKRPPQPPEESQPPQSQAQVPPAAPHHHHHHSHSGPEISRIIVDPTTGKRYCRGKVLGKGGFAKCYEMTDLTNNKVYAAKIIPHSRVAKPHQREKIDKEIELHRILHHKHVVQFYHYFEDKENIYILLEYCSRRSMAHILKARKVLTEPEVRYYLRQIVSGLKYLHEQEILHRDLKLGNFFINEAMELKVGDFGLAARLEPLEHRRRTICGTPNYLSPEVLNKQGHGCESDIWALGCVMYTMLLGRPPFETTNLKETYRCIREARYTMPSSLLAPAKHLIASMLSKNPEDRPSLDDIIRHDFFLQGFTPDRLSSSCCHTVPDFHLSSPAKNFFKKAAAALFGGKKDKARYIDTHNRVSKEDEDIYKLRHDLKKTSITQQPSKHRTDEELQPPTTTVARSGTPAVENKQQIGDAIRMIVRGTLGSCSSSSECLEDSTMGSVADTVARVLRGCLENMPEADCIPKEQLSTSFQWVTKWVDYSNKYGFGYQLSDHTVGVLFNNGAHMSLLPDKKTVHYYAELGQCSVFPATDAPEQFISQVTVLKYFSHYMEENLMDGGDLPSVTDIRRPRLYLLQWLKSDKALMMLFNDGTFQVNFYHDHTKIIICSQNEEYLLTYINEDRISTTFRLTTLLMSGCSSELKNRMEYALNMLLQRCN
Sequence of UniProt P08581 (whole entry, looked up): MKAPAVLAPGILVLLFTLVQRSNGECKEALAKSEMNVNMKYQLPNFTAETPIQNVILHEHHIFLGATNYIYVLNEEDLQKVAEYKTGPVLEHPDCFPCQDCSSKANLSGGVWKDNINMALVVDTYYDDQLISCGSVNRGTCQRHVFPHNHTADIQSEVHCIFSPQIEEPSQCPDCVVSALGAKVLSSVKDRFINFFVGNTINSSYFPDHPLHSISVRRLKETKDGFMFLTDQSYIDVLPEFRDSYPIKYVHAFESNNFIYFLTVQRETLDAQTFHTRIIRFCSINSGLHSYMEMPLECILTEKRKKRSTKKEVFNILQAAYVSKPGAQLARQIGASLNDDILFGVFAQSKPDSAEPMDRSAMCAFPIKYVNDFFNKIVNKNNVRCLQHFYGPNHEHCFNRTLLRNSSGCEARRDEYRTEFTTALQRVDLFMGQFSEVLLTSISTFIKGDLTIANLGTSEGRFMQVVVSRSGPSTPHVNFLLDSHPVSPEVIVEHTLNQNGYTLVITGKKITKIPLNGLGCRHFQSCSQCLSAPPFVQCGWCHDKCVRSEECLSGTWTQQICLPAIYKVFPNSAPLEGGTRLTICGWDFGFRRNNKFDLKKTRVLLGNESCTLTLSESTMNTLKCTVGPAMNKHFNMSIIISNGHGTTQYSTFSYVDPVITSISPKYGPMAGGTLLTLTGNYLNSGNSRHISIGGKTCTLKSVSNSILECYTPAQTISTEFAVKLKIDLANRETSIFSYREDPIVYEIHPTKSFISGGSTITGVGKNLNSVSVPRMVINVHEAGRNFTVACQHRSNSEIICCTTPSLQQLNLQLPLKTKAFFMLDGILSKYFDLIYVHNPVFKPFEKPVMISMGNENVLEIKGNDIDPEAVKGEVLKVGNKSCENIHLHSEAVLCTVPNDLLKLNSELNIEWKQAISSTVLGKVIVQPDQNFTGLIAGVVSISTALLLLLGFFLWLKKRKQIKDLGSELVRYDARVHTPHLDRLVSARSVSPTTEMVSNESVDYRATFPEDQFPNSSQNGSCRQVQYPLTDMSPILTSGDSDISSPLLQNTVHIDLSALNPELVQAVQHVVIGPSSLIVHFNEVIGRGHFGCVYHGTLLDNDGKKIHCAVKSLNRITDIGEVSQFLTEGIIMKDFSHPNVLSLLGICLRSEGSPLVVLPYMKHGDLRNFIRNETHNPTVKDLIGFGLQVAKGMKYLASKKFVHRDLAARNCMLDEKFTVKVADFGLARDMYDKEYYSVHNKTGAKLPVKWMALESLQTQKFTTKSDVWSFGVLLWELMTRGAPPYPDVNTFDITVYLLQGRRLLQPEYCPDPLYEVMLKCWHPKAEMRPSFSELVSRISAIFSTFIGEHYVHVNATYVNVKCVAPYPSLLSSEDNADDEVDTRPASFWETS
Sequence of UniProt P49137 (whole entry, looked up): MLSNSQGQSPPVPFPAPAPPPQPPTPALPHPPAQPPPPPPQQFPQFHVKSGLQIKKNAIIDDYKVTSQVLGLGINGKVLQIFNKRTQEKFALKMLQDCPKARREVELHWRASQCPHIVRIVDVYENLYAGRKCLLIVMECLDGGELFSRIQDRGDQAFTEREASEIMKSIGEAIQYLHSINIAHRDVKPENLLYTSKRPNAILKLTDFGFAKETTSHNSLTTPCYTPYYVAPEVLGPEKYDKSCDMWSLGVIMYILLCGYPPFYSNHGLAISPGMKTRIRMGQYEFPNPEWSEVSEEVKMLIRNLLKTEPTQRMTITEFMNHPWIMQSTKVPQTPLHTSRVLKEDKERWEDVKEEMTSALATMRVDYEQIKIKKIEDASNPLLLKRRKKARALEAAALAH
Sequence of UniProt P54762 (whole entry, looked up): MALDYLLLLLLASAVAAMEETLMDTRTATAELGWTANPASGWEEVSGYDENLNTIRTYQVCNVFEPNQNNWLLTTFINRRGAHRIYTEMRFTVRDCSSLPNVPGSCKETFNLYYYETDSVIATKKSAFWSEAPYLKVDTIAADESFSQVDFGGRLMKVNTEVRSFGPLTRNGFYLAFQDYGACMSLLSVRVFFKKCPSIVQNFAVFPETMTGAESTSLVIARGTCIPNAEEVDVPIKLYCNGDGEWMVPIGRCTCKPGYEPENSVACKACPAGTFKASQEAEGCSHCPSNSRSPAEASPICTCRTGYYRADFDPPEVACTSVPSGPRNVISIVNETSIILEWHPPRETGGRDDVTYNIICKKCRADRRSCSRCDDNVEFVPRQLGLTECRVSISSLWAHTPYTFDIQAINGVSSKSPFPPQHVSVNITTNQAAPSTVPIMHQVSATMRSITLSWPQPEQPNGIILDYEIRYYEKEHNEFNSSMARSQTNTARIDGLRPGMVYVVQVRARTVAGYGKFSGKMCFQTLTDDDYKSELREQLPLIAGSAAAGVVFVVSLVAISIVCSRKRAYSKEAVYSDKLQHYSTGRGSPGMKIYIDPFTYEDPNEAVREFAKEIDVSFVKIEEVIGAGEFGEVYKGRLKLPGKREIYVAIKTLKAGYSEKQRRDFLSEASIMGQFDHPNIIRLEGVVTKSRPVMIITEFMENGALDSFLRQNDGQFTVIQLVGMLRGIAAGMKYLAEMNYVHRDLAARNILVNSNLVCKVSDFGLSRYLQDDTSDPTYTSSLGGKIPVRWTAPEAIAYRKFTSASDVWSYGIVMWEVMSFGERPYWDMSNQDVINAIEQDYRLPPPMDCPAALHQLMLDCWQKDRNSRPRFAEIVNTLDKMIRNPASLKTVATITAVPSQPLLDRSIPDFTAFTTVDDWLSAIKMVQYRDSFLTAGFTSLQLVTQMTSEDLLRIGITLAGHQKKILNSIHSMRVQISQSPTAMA
Sequence of UniProt Q9H2X6 (whole entry, looked up): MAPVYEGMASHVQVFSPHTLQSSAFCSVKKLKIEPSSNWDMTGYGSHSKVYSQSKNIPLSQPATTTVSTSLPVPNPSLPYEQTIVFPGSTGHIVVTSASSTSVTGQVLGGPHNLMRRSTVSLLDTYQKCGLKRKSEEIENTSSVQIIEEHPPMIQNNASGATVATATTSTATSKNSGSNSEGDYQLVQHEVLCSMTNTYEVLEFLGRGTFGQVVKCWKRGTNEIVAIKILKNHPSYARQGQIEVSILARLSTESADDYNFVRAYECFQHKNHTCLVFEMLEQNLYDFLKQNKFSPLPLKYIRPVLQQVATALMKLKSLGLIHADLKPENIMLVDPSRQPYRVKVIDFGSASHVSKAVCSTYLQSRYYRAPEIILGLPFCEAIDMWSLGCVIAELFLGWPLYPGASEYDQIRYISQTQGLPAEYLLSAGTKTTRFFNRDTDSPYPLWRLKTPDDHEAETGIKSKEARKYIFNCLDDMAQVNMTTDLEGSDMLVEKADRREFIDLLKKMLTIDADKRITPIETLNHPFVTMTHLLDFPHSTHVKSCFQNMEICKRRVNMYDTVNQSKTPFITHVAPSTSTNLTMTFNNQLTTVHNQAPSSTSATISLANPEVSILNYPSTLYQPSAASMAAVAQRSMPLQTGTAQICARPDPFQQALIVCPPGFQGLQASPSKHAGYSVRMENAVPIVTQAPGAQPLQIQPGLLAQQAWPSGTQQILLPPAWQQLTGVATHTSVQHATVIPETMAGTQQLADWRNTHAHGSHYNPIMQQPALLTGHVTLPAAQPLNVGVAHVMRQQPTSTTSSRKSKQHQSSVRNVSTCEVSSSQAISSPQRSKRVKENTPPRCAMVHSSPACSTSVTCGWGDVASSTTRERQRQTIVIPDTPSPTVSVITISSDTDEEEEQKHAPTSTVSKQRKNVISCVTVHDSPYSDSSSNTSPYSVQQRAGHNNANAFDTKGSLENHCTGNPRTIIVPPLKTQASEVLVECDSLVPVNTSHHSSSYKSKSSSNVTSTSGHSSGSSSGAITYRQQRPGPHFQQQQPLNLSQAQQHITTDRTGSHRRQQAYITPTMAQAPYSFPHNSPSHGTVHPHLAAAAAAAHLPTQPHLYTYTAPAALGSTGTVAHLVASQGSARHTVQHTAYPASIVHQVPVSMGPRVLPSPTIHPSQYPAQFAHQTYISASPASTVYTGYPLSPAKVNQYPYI
Sequence of UniProt P49841 (whole entry, looked up): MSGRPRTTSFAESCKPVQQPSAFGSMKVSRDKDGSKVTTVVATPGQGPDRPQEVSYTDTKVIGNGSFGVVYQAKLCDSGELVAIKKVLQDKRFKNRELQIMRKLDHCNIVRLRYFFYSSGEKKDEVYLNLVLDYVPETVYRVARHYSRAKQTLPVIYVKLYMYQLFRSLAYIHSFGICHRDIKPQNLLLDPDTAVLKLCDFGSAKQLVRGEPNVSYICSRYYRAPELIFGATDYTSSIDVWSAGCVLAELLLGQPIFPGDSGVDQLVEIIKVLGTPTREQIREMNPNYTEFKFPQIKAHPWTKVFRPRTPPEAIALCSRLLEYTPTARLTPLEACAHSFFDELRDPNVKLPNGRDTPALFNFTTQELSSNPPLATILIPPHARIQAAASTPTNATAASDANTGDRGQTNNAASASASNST

Set 1 — Structure (SMILES): CCOc1ccc(Nc2c3c(nc4ccccc24)CCC3)cc1; organism: Leishmania donovani; strain: DD8
| assay | test system | conditions | inhibition |
| --- | --- | --- | --- |
| parasite killing | promastigotes | 16.66 µM, 96 h | 98% and 100% and 95% |
| parasite killing | promastigotes | 33.33 µM, 72 h | 99% and 100% |
| parasite killing | promastigotes | 16.66 µM, 24 h | 89% and 91% and 94% |
| parasite viability, resazurin | promastigotes | 0.016 µM | 3% and -6% and -5% and 0% |
| parasite killing | intracellular amastigotes | 20 µM, 72 h | 100% |
| parasite viability, resazurin | promastigotes | 0.16 µM | -2% and -1% and 5% |
| parasite viability, resazurin | promastigotes | 0.033 µM | -1% and -2% and 1% and 2% |

Set 2 — technique: competition with immobilised ligand; concentration: 1 µM
SMILES: O=C(Nc1cnc(Oc2ccc(F)cc2)nc1)N1CCc2ncccc2[C@@H]1c1ccc(F)cc1
| target | assay | remaining binding [%] |
| --- | --- | --- |
| MAP4K5 (Homo sapiens, UniProt Q9Y4K4) | cell-free assay | 77 |
| PLK2 (Homo sapiens, UniProt Q9NYY3) | cell-free assay | 100 |
| NEK10 (Homo sapiens, UniProt Q6ZWH5) | cell-free assay | 100 |
| TNK1 (Homo sapiens, UniProt Q13470) | cell-free assay | 97 |
| CSNK1A1 (Homo sapiens, UniProt P48729) | cell-free assay | 85 |
| CLK4 (Homo sapiens, UniProt Q9HAZ1) | cell-free assay | 100 |
| CILK1 (Homo sapiens, UniProt Q9UPZ9) | binding | 92 |
| EGFR (Homo sapiens, UniProt P00533, L861Q) | cell-free assay | 85 |
| Ribosomal protein S6 kinase alpha-3, N-terminal kinase domain (RPS6KA3, Homo sapiens, UniProt P51812) | cell-free assay | 97 |
| EGFR (Homo sapiens, UniProt P00533, G719S) | cell-free assay | 72 |
| HIPK2 (Homo sapiens, UniProt Q9H2X6) | cell-free assay | 91 |
| MET (Homo sapiens, UniProt P08581) | cell-free assay | 100 |
| DCLK3 (Homo sapiens, UniProt Q9C098) | cell-free assay | 96 |
| MAP2K7 (Homo sapiens, UniProt O14733) | cell-free assay | 95 |
| Tyrosine-protein kinase ABL1, non-phosphorylated (ABL1, Homo sapiens, UniProt P00519) | cell-free assay | 93 |
| TNIK (Homo sapiens, UniProt Q9UKE5) | cell-free assay | 100 |
| FGFR2 (Homo sapiens, UniProt P21802) | cell-free assay | 98 |
| TNK2 (Homo sapiens, UniProt Q07912) | cell-free assay | 93 |
| Tyrosine-protein kinase ABL1, phosphorylated (ABL1, Homo sapiens, UniProt P00519, Q252H) | cell-free assay | 100 |
| PRKG1 (Homo sapiens, UniProt Q13976) | cell-free assay | 89 |
| STK4 (Homo sapiens, UniProt Q13043) | cell-free assay | 100 |
| EPHB1 (Homo sapiens, UniProt P54762) | cell-free assay | 83 |
| SRPK2 (Homo sapiens, UniProt P78362) | cell-free assay | 100 |
| CIT (Homo sapiens, UniProt O14578) | cell-free assay | 88 |
| KIT (Homo sapiens, UniProt P10721) | cell-free assay | 100 |

Set 3 — technique: trypan blue exclusion; time: 48 h; relative to: untreated
SMILES: CCc1cnn2c(NCc3ccc[n+]([O-])c3)cc(N3CCCC[C@H]3CCO)nc12
| cell line | conditions | viability |
| --- | --- | --- |
| HH | 0.05 µM | 5.6% and 2.7% and 4.54% |
| HH | 10 µM | 0% |
| HuT78 | 0.0001 µM | 102% |
| HH | 0.5 µM | 0.951% and 0% and 1.82% |
| HH | 1 µM | 0% and 1.3% |
| HH | 0.1 µM | 0.855% and 0% |

Set 4 — read-out: enzyme activity; action: inhibitor; concentration: 0.5 µM; relative to: control
SMILES: COc1ccc2c(c1)c(C1=C(c3c[nH]c4ccccc34)C(=O)NC1=O)cn2CCCN(C)C
| target | remaining activity [%] |
| --- | --- |
| RPS6KA2 (Homo sapiens, UniProt Q15349) | 5.46 |
| FRK (Homo sapiens, UniProt P42685) | 91.3 |
| NEK6 (Homo sapiens, UniProt Q9HC98) | 101 |
| NEK1 (Homo sapiens, UniProt Q96PY6) | 94.7 |
| TAOK2 (Homo sapiens, UniProt Q9UL54) | 80.8 |
| GRK7 (Homo sapiens, UniProt Q8WTQ7) | 106 |
| LCK (Homo sapiens, UniProt P06239) | 93.6 |
| FGFR1 (Homo sapiens, UniProt P11362) | 59 |
| CSNK1G3 (Homo sapiens, UniProt Q9Y6M4) | 77.8 |
| ABL2 (Homo sapiens, UniProt P42684) | 77.7 |
| MAP3K5 (Homo sapiens, UniProt Q99683) | 95.1 |
| MST1R (Homo sapiens, UniProt Q04912) | 91.3 |
| MAPKAPK2 (Homo sapiens, UniProt P49137) | 99.7 |
| GSK3B (Homo sapiens, UniProt P49841) | 32 |

Repeated from above (set 2):
| target | assay | remaining binding [%] |
| --- | --- | --- |
| PLK2 (Homo sapiens, UniProt Q9NYY3) | cell-free assay | 100 |
| NEK10 (Homo sapiens, UniProt Q6ZWH5) | cell-free assay | 100 |
| TNK1 (Homo sapiens, UniProt Q13470) | cell-free assay | 97 |
| CSNK1A1 (Homo sapiens, UniProt P48729) | cell-free assay | 85 |
| CLK4 (Homo sapiens, UniProt Q9HAZ1) | cell-free assay | 100 |
| CILK1 (Homo sapiens, UniProt Q9UPZ9) | binding | 92 |
